Measurements gathered from unrelated publications.
Numbered parts are unrelated; each lists some results of a single study. “And” joins repeats or separate records; there may be more than shown.
Sequence of UniProt O75716 (whole entry, looked up): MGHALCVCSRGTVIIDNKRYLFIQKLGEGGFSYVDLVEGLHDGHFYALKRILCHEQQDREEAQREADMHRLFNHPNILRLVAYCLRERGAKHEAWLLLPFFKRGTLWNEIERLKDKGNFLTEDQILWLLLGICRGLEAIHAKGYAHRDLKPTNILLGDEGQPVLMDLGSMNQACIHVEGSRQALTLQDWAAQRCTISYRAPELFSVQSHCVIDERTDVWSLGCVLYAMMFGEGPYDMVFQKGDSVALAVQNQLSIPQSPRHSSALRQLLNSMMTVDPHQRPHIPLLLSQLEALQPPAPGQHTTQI
Sequence of UniProt Q14680 (whole entry, looked up): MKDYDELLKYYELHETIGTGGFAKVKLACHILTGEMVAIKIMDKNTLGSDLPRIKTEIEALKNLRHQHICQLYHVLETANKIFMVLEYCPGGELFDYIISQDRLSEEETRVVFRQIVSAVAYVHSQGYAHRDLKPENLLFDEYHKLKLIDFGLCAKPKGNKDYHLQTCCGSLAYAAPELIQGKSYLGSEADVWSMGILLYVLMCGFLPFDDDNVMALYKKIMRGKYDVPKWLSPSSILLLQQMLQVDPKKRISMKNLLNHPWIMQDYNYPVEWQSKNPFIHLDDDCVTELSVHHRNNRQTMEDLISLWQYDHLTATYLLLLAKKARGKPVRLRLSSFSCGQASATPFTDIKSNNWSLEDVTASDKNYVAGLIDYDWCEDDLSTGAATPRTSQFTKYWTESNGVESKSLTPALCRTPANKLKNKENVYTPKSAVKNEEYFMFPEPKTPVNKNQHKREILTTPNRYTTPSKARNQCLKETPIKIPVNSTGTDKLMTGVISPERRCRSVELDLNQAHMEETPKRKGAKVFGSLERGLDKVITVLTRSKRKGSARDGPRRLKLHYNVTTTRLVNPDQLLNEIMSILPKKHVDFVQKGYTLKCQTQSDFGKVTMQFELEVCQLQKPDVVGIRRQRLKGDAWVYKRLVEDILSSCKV
Sequence of UniProt O43318 (whole entry, looked up): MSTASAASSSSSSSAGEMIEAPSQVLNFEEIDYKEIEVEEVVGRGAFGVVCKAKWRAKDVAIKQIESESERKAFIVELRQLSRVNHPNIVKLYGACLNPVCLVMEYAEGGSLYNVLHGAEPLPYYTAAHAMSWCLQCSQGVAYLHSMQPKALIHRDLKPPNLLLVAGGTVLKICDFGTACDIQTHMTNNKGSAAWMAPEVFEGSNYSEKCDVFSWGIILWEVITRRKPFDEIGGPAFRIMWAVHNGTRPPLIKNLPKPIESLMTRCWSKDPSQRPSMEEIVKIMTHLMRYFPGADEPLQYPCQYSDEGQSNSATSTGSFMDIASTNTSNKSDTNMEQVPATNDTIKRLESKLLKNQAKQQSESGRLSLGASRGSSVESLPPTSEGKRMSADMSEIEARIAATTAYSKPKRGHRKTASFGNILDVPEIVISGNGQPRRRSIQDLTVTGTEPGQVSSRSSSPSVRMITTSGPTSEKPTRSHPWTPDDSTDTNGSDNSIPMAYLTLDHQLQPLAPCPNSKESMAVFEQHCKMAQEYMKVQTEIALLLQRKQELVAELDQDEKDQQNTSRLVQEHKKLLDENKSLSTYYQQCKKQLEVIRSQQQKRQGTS
Sequence of UniProt P33981 (whole entry, looked up): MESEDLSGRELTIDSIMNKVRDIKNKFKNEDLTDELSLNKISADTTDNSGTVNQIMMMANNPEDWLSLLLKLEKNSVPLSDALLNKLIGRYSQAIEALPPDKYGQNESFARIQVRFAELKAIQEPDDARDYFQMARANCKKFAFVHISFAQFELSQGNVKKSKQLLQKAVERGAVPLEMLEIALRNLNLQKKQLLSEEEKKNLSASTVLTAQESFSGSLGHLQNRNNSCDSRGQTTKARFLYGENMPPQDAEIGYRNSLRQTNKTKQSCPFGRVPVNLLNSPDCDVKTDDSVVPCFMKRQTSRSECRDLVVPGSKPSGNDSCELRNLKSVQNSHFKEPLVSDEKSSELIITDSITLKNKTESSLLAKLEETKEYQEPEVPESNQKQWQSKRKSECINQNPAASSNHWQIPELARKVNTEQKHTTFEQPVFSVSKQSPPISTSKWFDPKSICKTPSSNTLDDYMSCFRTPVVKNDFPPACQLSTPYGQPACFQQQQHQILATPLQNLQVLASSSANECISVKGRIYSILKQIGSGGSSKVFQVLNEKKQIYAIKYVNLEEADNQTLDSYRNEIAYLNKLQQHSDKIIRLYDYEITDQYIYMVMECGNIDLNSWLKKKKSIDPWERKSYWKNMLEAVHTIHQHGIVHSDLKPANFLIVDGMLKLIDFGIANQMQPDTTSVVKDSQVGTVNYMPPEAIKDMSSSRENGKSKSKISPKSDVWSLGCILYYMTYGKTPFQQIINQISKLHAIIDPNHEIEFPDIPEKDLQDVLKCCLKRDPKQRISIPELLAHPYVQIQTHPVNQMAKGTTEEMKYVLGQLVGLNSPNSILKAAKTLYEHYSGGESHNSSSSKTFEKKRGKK
Sequence of UniProt Q15375 (whole entry, looked up): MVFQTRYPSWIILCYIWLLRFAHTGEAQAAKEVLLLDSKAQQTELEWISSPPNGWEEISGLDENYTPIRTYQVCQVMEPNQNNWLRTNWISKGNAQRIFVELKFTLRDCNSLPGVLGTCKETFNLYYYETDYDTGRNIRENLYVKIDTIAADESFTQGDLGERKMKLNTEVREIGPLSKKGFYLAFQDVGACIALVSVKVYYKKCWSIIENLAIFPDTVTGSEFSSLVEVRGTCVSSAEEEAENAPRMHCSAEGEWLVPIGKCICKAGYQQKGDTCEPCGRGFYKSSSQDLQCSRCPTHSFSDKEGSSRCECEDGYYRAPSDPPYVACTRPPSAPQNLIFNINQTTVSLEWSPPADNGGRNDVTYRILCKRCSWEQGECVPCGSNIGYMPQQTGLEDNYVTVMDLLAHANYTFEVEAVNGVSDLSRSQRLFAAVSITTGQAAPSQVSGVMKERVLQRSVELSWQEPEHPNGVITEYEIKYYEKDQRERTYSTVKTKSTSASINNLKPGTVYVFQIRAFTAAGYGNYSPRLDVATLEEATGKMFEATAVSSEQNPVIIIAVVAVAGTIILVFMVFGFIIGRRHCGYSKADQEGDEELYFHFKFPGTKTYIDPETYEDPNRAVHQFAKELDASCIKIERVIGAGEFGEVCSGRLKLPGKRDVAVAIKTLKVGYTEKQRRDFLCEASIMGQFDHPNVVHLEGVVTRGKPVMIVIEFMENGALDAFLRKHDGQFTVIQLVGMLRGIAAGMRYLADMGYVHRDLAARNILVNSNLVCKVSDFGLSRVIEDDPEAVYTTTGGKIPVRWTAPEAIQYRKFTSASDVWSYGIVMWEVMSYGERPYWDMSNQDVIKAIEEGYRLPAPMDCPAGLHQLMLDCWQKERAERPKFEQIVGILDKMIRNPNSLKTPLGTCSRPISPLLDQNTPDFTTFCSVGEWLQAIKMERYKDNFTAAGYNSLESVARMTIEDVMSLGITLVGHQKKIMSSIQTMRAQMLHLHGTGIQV
Sequence of UniProt Q96SB4 (whole entry, looked up): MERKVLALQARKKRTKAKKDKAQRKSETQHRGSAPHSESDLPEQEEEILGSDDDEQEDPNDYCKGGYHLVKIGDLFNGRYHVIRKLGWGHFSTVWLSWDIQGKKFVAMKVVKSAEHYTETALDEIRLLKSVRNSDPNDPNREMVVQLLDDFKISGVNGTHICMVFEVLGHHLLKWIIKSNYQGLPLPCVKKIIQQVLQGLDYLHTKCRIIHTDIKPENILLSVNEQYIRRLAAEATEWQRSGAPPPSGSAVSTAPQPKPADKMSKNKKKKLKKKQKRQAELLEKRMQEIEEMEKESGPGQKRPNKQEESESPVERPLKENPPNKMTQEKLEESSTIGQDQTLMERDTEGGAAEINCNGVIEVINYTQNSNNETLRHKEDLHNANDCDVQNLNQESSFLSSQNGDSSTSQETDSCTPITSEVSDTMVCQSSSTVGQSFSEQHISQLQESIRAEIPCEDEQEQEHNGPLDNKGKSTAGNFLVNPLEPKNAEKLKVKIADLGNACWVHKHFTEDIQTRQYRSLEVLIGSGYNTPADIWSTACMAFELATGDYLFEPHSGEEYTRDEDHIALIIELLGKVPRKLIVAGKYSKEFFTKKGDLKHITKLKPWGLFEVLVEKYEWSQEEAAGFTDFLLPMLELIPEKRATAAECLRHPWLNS
Sequence of UniProt Q9HBH9 (whole entry, looked up): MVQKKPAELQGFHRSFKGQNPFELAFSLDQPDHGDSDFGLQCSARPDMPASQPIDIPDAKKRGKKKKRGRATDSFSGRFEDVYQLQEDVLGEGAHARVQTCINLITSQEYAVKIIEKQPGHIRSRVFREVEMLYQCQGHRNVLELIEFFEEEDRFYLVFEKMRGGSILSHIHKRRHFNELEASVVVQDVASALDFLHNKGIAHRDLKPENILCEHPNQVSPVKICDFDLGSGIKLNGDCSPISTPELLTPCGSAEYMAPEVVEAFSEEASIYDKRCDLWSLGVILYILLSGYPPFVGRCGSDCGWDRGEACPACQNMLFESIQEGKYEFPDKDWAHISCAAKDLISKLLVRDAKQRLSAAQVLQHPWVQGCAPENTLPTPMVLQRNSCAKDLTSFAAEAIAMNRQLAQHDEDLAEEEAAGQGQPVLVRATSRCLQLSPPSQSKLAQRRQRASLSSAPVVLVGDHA
Sequence of UniProt O14733 (whole entry, looked up): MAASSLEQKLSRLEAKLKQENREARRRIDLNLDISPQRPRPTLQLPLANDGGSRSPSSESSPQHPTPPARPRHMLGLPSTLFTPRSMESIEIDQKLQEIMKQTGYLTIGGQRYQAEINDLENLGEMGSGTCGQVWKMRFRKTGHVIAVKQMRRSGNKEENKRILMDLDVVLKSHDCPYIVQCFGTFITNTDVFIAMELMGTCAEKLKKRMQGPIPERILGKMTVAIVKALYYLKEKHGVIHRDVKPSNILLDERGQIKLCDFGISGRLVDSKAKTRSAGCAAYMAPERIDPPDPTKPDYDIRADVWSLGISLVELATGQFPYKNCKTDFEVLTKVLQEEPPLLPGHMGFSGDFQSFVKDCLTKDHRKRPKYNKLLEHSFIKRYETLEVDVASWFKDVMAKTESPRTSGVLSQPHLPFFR

Set 1
Structure (SMILES): CN1CCN(c2cnc3c(C4CCN(C(=O)c5ccc(OC(F)(F)F)cc5N)CC4)ncnc3c2)CC1
Tested at: 1 µM
target | effect on | technique | remaining binding
DYRK1B (Homo sapiens, UniProt Q9Y463) | cell-free assay | competition with immobilised ligand | 54%
MAPK11 (Homo sapiens, UniProt Q15759) | cell-free assay | competition with immobilised ligand | 98%
Ribosomal protein S6 kinase alpha-4, N-terminal kinase domain (RPS6KA4, Homo sapiens, UniProt O75676) | cell-free assay | competition with immobilised ligand | 100%
CSNK1D (Homo sapiens, UniProt P48730) | cell-free assay | competition with immobilised ligand | 100%
SRPK1 (Homo sapiens, UniProt Q96SB4) | cell-free assay | competition with immobilised ligand | 88%
STK16 (Homo sapiens, UniProt O75716) | cell-free assay | competition with immobilised ligand | 100%
TTK (Homo sapiens, UniProt P33981) | cell-free assay | competition with immobilised ligand | 100%
EGFR (Homo sapiens, UniProt P00533, del746-750) | cell-free assay | competition with immobilised ligand | 100%
PIK3CA (Homo sapiens, UniProt P42336, Q546K) | cell-free assay | competition with immobilised ligand | 100%
EPHA8 (Homo sapiens, UniProt P29322) | cell-free assay | competition with immobilised ligand | 100%
SRC (Homo sapiens, UniProt P12931) | cell-free assay | competition with immobilised ligand | 100%
AAK1 (Homo sapiens, UniProt Q2M2I8) | binding |  | 100%
LIM domain kinase 2 (LIMK2, Homo sapiens, UniProt P53671) | cell-free assay | competition with immobilised ligand | 100%
WNK3 (Homo sapiens, UniProt Q9BYP7) | cell-free assay | competition with immobilised ligand | 100%
Ribosomal protein S6 kinase alpha-6, C-terminal kinase domain (RPS6KA6, Homo sapiens, UniProt Q9UK32) | cell-free assay | competition with immobilised ligand | 100%
MKNK2 (Homo sapiens, UniProt Q9HBH9) | cell-free assay | competition with immobilised ligand | 100%
STK10 (Homo sapiens, UniProt O94804) | cell-free assay | competition with immobilised ligand | 52%
TXK (Homo sapiens, UniProt P42681) | binding | competition with immobilised ligand | 88%
MELK (Homo sapiens, UniProt Q14680) | cell-free assay | competition with immobilised ligand | 85%

Set 2
Cell line: A-375
Tested at: 100 µM
Time: 36 h
SMILES | viability [%]
CN(N=O)C(=O)N[C@@H](C=O)[C@@H](O)[C@H](O)[C@H](O)CO | 95.6
Cc1c(N(C)C)c(=O)n(-c2ccccc2)n1C | 113
NCCc1ccc(O)c(O)c1 | 54.6
CC1=C(C(=O)OC(C)C)C(c2cccc([N+](=O)[O-])c2)C(C(=O)OC2CN(C(c3ccccc3)c3ccccc3)C2)=C(N)N1 (stereo not drawn) | 2.96
CCC[C@H](N[C@@H](C)C(=O)N1[C@H](C(=O)O)C[C@@H]2CCCC[C@@H]21)C(=O)OCC | 108
Nc1ncnc2c1ncn2[C@@H]1O[C@H](CO)[C@@H](O)[C@H]1O | 98.6
CC12CC3CC(C)(C1)CC(N)(C3)C2 | 86.6

Set 3
Structure (SMILES): Cc1ccc(NC(=O)c2ccnc(C(F)(F)F)c2)cc1-c1cc(OCCO)nc(N2CCOCC2)c1
Effect on: binding
Tested at: 1 µM
target | technique | remaining binding [%]
MAP4K5 (Homo sapiens, UniProt Q9Y4K4) | competition with immobilised ligand | 98
EPHA7 (Homo sapiens, UniProt Q15375) | competition with immobilised ligand | 99
MAP2K2 (Homo sapiens, UniProt P36507) | competition with immobilised ligand | 89
MAP2K7 (Homo sapiens, UniProt O14733) |  | 100
PIK3CG (Homo sapiens, UniProt P48736) |  | 81
PIK3C2G (Homo sapiens, UniProt O75747) |  | 96
MAP3K7 (Homo sapiens, UniProt O43318) | competition with immobilised ligand | 96
MAP2K5 (Homo sapiens, UniProt Q13163) | competition with immobilised ligand | 95

Set 4
SMILES: CCC(=O)N1CCN(c2nc(OC[C@@H]3CCCN3C)nc3c2CCN(c2cccc4cccc(Cl)c24)C3)C[C@@H]1CC#N
Effect on: binding
Mode: competitor
Technique: NanoBRET
Cell line: HEK293
KRAS Q61L: GTPase KRas (KRAS, Homo sapiens, UniProt P01116, Q61L)
KRAS Q61R: GTPase KRas (KRAS, Homo sapiens, UniProt P01116, Q61R)
target | tested at | normalized BRET
KRAS Q61L | 137 nM | 90.1% and 103% and 91.1%
KRAS Q61L | 3.7 µM | 39.6% and 40.9% and 43.4%
KRAS Q61R | 1.69 nM | 104% and 109% and 103%
KRAS Q61R | 11.1 µM | 110% and 91.2% and 111%
KRAS Q61L | 1.69 nM | 103% and 104% and 100%

For quick reference, copied from above (set 1):
target | effect on | technique | remaining binding
MKNK2 (Homo sapiens, UniProt Q9HBH9) | cell-free assay | competition with immobilised ligand | 100%
STK10 (Homo sapiens, UniProt O94804) | cell-free assay | competition with immobilised ligand | 52%
SRPK1 (Homo sapiens, UniProt Q96SB4) | cell-free assay | competition with immobilised ligand | 88%
